Measurements from different studies.
Each line is one published result; not all experiments were run side by side. Values joined by “and” are separate records of one study, mostly repeats; a detail may differ. Numbers after ± are the reported error.

Under “GSVA score change”, Cc1cc(-c2nnc(N)nc2-c2ccc(F)cc2)cc(Cl)n1 is recorded as 0.143 (NanoString, measured: M1.core.Becker.IO signature; human mCRPC, peripheral blood; dose not given, 2 or 4 weeks; reference: baseline, direction not given).
COc1ncc(-c2nc3c(n2C(C)C)[C@H](c2ccc(Cl)cc2)N(c2cc(Cl)cn(C)c2=O)C3=O)c(OC)n1: “best overall response” 26.7% (antileukemic activity, measured: treatment failure, indeterminate cause; human, acute myeloid leukaemia; 250 mg, high-dose, RDE).
For N#Cc1ccn2c(-c3ccncc3)c(-c3ccc(F)cc3)nc2c1, “log2 fold change” read 0.0181 (kinase binding, competitor, MIB/MS competition, measured: RIM11; Candida albicans cell lysate; 1 µM; reference: DMSO).
The twitch response of CN(C)C(=O)Oc1cccc([N+](C)(C)C)c1 is reported as 56.7% and 34.2% and 11.2% and 23.5% and 23% (rat cisatracurium-induced neuromuscular block; 0.0125 mg/kg).
The tumour weight of Cc1nc(N(Cc2ccccc2)c2ccc3c(c2)/C(=C/c2ccccc2)C(=O)N3Cc2ccccc2)c2ccccc2n1 (mixture of isomers) is reported as 0.75 g (mouse LLC syngeneic tumour; ip, 15 mg/kg every two days, 14 days).
COC(=O)c1cc(O)c(O)c(O)c1 has a Hill coefficient of 0.9 ± 0.05 (Gunn rat liver microsomes; glucuronidation, metabolite M2).
Cc1oncc1C(=O)Nc1ccc(C(F)(F)F)cc1 has a DHO concentration of 12.3 ± 4.26 µM (measured: dihydroorotate; female CD-1 mice, blood; oral, 10 mg/kg daily, 24 h after dose 10, 10-day dosing).
For C=CC(=O)N1CCC(c2ccc(C(N)=O)c(-c3ccc(Oc4ccccc4)cc3)n2)CC1, the ORR was 80.2% (tumour response, Lugano classification; patients with relapsed/refractory MCL; investigator assessed, 10.5 months follow-up).
OC(CCN1CCCCC1)(c1ccccc1)C1CC2C=CC1C2 (stereo not shown) — result for “power, delta EEG, O2-Pz”: 9.9 µV² (resting-state EEG; healthy elderly humans; oral, 4 mg, eyes closed, LS mean).
Under “difference from placebo”, C[C@H](Oc1ccc(Br)cc1-c1ccon1)C(=O)O is recorded as -18.8% (last response peak; human, tibialis anterior muscle; 800 mg, 30 Hz, single ascending dose).
CC(C)[C@H](C(=O)Nc1ccc(C(=O)NO)cc1)c1ccccc1: “speech discrimination score, left ear” 0% (human; 1.7 4 weeks after dosing; direction not given).
The reticulocytes of CC(=O)NCC(=O)NCC(=O)N[C@H](C(=O)N[C@@H](Cc1ccc(O)cc1)C(=O)N[C@@H](CO)C(=O)N[C@H]1CSSC[C@@H](C(=O)N[C@@H](CCCNC(=N)N)C(=O)N2CCC[C@H]2C(=O)N[C@@H](CCC(N)=O)C(=O)N[C@@H](CCCNC(=N)N)C(=O)NCC(=O)NCCC(=O)N[C@@H](CCCCNC(=O)CN(CC(=O)NCCCC[C@H](NC(=O)CCNC(=O)CNC(=O)[C@H](CCCNC(=N)N)NC(=O)[C@H](CCC(N)=O)NC(=O)[C@@H]2CCCN2C(=O)[C@H](CCCNC(=N)N)NC(=O)[C@@H]2CSSC[C@H](NC(=O)[C@H](CO)NC(=O)[C@H](Cc3ccc(O)cc3)NC(=O)[C@@H](NC(=O)CNC(=O)CNC(C)=O)[C@@H](C)O)C(=O)N[C@@H](Cc3c[nH]cn3)C(=O)N[C@@H](Cc3ccccc3)C(=O)NCC(=O)N[C@@H](C)C(=O)N[C@@H](CC(C)C)C(=O)N[C@@H]([C@@H](C)O)C(=O)N[C@@H](Cc3c[nH]c4ccccc34)C(=O)N[C@@H](C(C)C)C(=O)N2)C(N)=O)C(=O)CCN)C(N)=O)NC(=O)[C@H](C(C)C)NC(=O)[C@H](Cc2c[nH]c3ccccc23)NC(=O)[C@H]([C@@H](C)O)NC(=O)[C@H](CC(C)C)NC(=O)[C@H](C)NC(=O)CNC(=O)[C@H](Cc2ccccc2)NC(=O)[C@H](Cc2c[nH]cn2)NC1=O)[C@@H](C)O is reported as 4.5% (healthy BALB/c mice; subcutaneous, 0.16 mg/kg, 6 d, single dose).
CCc1c(C)nc(-c2ccc(Cl)s2)nc1Nc1ccc(CC(=O)O)cc1 — result for “Oil Red O staining”: “decreased” (mice, chronic ethanol plus binge, liver; intraperitoneal, 0.3 mg/kg daily, ethanol diet 4 weeks, dosed last two; reference: vehicle).
CN[C@@H]1COc2c(S(=O)(=O)NC(=O)Nc3c4c(cc5c3CCC5)CCC4)cnn2C1 has an inhibition of 102% (measured: IL-18; human participants, whole blood ex vivo; 300 mg twice daily, multiple doses, 48 h, IL-18, circulating, adjusted for, together with: LPS/ATP; reference: baseline).
CC(C)NCC(O)c1ccc(O)c(O)c1 (stereo not shown) gave a sarcomere length of 1.51 µm (ventricular cardiomyocytes, C57BL/6 mouse; dose not given, 0.508 s).
For O=C(COc1ccc(Cl)cc1)NC12CC(c3nnc([C@H]4C[C@@H](OC(F)(F)F)C4)o3)(C1)C2, “ATF4 protein change” read -66.6% (healthy human, PBMC; oral, 800 mg single dose, day 2, 24 h post-dose, median, together with: sodium arsenite ex vivo; reference: baseline).
For C=C1CC[C@H](OCCCNC(=O)CCOCCOCCOCCOCCOCCOCCOCCOCCOCCOCCOCCOCCOCCOCCOCCOCCOCCOCCOCCOCCOCCOCCOCCOCCOCCOCCOCCOCCOCCOCCOCCOCCOCCOCCOCCOCCNC(=O)CCN2C(=O)CC(SC[C@H](NC(=O)[C@H](CCCNC(=N)N)NC(=O)[C@@H]3CCCN3C(=O)[C@H](CCC(N)=O)NC(=O)[C@H](CC(C)C)NC(=O)[C@H](CCCCN)NC(=O)[C@H](C)NC(=O)[C@@H]3CCCN3C(=O)[C@@H]3CCCN3C(=O)[C@H](CCCCN)NC(=O)[C@H](CCCCN)NC(=O)[C@H](CO)NC(=O)[C@H](CCC(=O)O)NC(=O)[C@H](CCCCN)NC(=O)[C@H](CCCNC(=N)N)NC(=O)[C@H](CCC(N)=O)NC(=O)[C@H](CCC(N)=O)NC(=O)[C@@H](NC(=O)[C@H](CCCNC(=N)N)NC(=O)[C@H](CCC(N)=O)NC(=O)[C@H](Cc3c[nH]cn3)NC(=O)[C@H](CCC(=O)O)NC(=O)[C@@H]3CCCN3C(=O)[C@H](CO)NC(=O)[C@H](CC(C)C)NC(=O)[C@H](Cc3ccccc3)NC(=O)[C@H](CNC(=O)CCCCCCC)NC(=O)[C@H](CO)NC(=O)CN)C(C)C)C(=O)O)C2=O)C/C1=C/C=C1\CCC[C@]2(C)[C@@H]([C@H](C)CCCC(C)(C)O)CC[C@@H]12 (stereo partly shown), “body weight loss” read 7% (measured: carcass weight; C57BL/6J mice, LLC tumour-induced cachexia; 0.25 mg/kg daily; reference: tumour-bearing vehicle).
Cc1cc(Nc2cc3ncccc3c(N[C@@H]3C[C@H]4CC[C@@H](C3)N4CCC#N)n2)n[nH]1: “change in total Mayo” -1.6 (moderate-severe ulcerative colitis patients; 80 mg, day 28, unit not given; reference: baseline).
c1ccc(-c2n[nH]cc2-c2ccnc3ccccc23)nc1 — result for “log2 fold change”: 1.35 (kinase binding, competitor, MIB/MS competition, measured: ATG1; Candida albicans cell lysate; 100 nM; reference: DMSO).
C[C@H]1C[C@H]2CSC(N)=N[C@@]2(c2nc(NC(=O)c3ccc(OC(F)F)cn3)cs2)CO1 — result for “percent change from baseline”: -61.6% (measured: total Aβ; healthy adults, plasma; 50 mg once daily, day 4; reference: placebo).
The partial response of C[C@H](NC(=O)c1c(C(F)F)nn(C)c1Oc1cccc(C(F)(F)F)c1)c1ccc(C(=O)O)cc1 is reported as 0% (irRECIST; human, advanced tumours; 500 mg; best overall response).
N#Cc1ccc2c(-c3ccncc3)c(-c3ccc(F)cc3)nn2c1: “log2 fold change” -0.493 (kinase binding, competitor, MIB/MS competition, measured: KIN2; Candida albicans cell lysate; 1 µM; reference: DMSO).
NC(=O)c1cnc2[nH]ccc2c1N[C@@H]1[C@@H]2CC3C[C@H]1C[C@@](O)(C3)C2 — result for “change from baseline”: -1.08% (flow cytometry, measured: regulatory T cells; Japanese healthy subjects, peripheral blood; oral, 10 mg twice daily, day 4).
For CCO[C@H]1CCN(Cc2c(OC)cc(C)c3[nH]ccc23)[C@H](c2ccc(C(=O)O)cc2)C1, “PNH RBC clone size” read 20.5% (PNH patients, blood; oral, 50 mg then 200 mg, week 2, mean absolute change; reference: baseline).
For C[C@]12CC[C@@H]3c4ccc(O)cc4C[C@@H](CCCCCCCCC[S+]([O-])CCCC(F)(F)C(F)(F)F)[C@H]3[C@@H]1CC[C@@H]2O (stereo partly shown), the tumour volume was 138 mm3 and 82.4 mm3 and 105 mm3 and 102 mm3 and 101 mm3 and 85.7 mm3 and 110 mm3 (female nude mouse LCC2 xenograft; 2.0 mg/kg, day 13, tamoxifen-resistant).
For O=C(OC(C(F)(F)F)C(F)(F)F)N1CCN(Cc2cccc(Oc3ccccc3)c2)CC1, “volume of distribution” read 4.1 mL/cm3 (PET blocking study; rhesus monkey, brain thalamus; intravenous, 0.03 mg/kg, compound pretreatment, together with: [18F]T-401 tracer).
N#Cc1ccc2c(c1)[C@H]1CCCN(C(=O)c3ccc4[nH]cnc4c3)[C@H]1C2 — result for “change from baseline”: -0.58 mg/L (measured: 1,5-anhydroglucitol; human; 240 mg once daily, day 28, adjusted mean).
The maximum inhibition of Cc1noc(C)c1-c1cc(C(O)(c2ccccn2)c2ccccn2)c2nc(C3CC3)[nH]c2c1 is reported as 47.3% (measured: CCR2 expression; human patients; dose not given, day 8, 192 h).
The locomotor activity of Cc1c(C)n(Cc2cccc(OC(C)(C)C(=O)O)c2)c2ccc(C(=O)N[C@@H](C)c3ccc(C(C)(C)C)cc3)cc12 is reported as 1050 ± 585 counts/20 min (indirect calorimetry; lean mice; dose not given, average over 72 h, end of treatment).
O=S(=O)(NCCNC/C=C/c1ccc(Br)cc1)c1cccc2cnccc12: “embryos reaching 4-cell” 0% and 5% (mouse zygotes; 20 µM, 120 h post-hCG).
Under “patients remaining on treatment”, COc1ccc(F)cc1C(=O)NCc1ccc(-c2nn([C@@H](C)C(F)(F)F)c(N)c2C(N)=O)cc1 is recorded as 57% (MCL patients; dose not given).
For O=c1cc(-c2ccc(O)cc2)oc2c([C@@H]3OC[C@H](O)[C@H](O)[C@H]3O)c(O)c([C@@H]3O[C@H](CO)[C@@H](O)[C@H](O)[C@H]3O)c(O)c12, IVRT read “decreased” (HFpEF mice; oral, 20 and 40 mg/kg/day).
O=C(O)/C=C/c1nccc2c3ccccc3n(Cc3ccc(C4CC4)c4ccccc34)c12: “decrease in serum uric acid” 69.3% (mouse, acute hyperuricaemia model; oral, 2 mg/kg).
CN(C(=O)n1cnc(-c2ccc[n+]([O-])c2)c1)C1CCCCC1 has an AUC(0-t) of 378 ng·h/mL (measured: PEA; human, plasma; 20 mg single dose).
N[C@@H](CC(=O)N1CCn2c(nnc2C(F)(F)F)C1)Cc1cc(F)c(F)cc1F has a waist circumference of 104 cm (type 2 diabetes patients on metformin; oral, 100 mg once daily, 28 weeks).
Under “peak inhibition range”, N#CC[C@H](C1CCCC1)n1cc(-c2ncnc3[nH]ccc23)cn1 is recorded as 10 to 74.3% (phosphoflow cytometry, measured: pSTAT5; patient plasma; concentration not given).
For CC(C)(C)C1CCc2c(sc(NC(=O)c3ccco3)c2C(=O)O)C1 (stereo not shown), “pain response latency” read “no effect” (hot plate test; ICR mouse; intragastric, 20 mg/kg, 3 h; reference: vehicle).
With CCN1CCN(Cc2ccc(Nc3ncc(F)c(-c4cc(F)c5nc6n(c5c4)[C@H](C)CCC6)n3)nc2)CC1 the progressive disease was 16.7% (human advanced solid tumours; 500 mg, phase Ia monotherapy RECIST 1.1).
COc1cc(-c2ccccc2)ncc1C(=O)Nc1ccc2c(=O)[nH]c(-c3ccc(C(C)(C)O)cc3)nc2c1: “normalized enrichment score” -2.22 (RNA-seq GSEA, measured: HALLMARK_MYC_TARGETS_V1; organoids, small intestinal, Apc Q1405X, mouse; dose not given, knockout organoids; reference: DMSO, direction not given).
Cc1n[nH]c2ccc(-c3cc(OC[C@@H](N)Cc4ccccc4)cnc3-c3ccoc3)cc12: “log2 fold change” -0.886 (kinase binding, competitor, MIB/MS competition, measured: RCK2; Candida albicans cell lysate; 10 µM; reference: DMSO).
C[C@H]1O[C@@H](O[C@H]2CC[C@@]3(C)[C@@H](CC[C@]4(C)[C@@H]3C=C[C@]35OC[C@@]6(CCC(C)(C)C[C@H]63)[C@@H](O)C[C@]54C)[C@]2(C)CO)[C@H](O)[C@@H](O[C@@H]2O[C@H](CO)[C@@H](O)[C@H](O)[C@H]2O)[C@H]1O gave a total cholesterol of 1.71 mM and 1.97 mM and 1.66 mM and 1.74 mM and 1.86 mM (chronic-plus-binge ethanol mice, plasma; oral, 5 mg/kg/day for 7 d, 168 h).
CC(CCc1ccc(O)cc1)NCCc1ccc(O)c(O)c1 (stereo not shown) — result for “heart rate change”: 31 ± 12.6 (anaesthetised instrumented rat; iv infusion, 1 µg/kg/min, 15 min, unit not given; reference: baseline).
The sarcomere length of O=C(O)CNC(=O)Cc1ccccc1 is reported as 1.72 µm (ventricular cardiomyocytes, C57BL/6 mouse; dose not given, 0.748 s).
For COc1cccc2c(N3CCC(CCP(=O)(O)O)CC3)ncnc12, the cGAMP concentration was less than 2 ng/mL (mouse, EMT6 tumour, serum; dose not given, below quantification limit).
With C[C@@H](O)CCOC(=O)C[C@@H](C)O the metabolite level was -7.63 ± 0.45 µmol/L (measured: C18:2-OH acylcarnitine; human, plasma; 60 min, log2-transformed values).
For OCC(O)CO, the FGF21 level was 564 pg/mL and 324 pg/mL and 349 pg/mL and 429 pg/mL and 235 pg/mL (ELISA; Mus musculus male wild type, serum; drinking water, 5% w/v, 2 days).
